Assay results pooled from the literature.
Parts stem from different laboratories: compare values within a part only. Values joined by “and” are separate records of one study, mostly repeats; a detail may differ.
UniProt P11229, sequence (whole entry, looked up): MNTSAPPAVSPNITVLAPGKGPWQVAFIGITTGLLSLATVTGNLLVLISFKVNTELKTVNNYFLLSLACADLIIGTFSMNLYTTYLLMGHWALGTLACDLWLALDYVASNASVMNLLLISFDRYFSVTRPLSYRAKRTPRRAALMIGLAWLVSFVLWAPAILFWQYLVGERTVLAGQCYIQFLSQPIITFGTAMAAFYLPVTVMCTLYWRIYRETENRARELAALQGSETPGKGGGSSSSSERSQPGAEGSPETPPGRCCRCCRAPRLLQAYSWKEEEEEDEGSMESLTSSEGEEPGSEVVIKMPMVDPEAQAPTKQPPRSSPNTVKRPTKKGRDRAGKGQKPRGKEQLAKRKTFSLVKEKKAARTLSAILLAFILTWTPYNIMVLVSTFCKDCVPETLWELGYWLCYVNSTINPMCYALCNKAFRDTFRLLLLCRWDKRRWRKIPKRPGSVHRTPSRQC
UniProt P35372, sequence (whole entry, looked up): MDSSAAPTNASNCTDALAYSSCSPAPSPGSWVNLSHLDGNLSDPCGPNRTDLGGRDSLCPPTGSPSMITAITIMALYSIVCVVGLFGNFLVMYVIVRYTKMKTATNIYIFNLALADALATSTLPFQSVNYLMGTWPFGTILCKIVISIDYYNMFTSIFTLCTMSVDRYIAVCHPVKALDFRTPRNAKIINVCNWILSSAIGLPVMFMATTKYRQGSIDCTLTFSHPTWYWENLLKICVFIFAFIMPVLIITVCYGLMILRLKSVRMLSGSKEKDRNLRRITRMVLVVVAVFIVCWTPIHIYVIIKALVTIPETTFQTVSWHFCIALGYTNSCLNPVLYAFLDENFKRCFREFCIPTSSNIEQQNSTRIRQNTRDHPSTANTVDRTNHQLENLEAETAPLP
UniProt P41143, sequence (whole entry, looked up): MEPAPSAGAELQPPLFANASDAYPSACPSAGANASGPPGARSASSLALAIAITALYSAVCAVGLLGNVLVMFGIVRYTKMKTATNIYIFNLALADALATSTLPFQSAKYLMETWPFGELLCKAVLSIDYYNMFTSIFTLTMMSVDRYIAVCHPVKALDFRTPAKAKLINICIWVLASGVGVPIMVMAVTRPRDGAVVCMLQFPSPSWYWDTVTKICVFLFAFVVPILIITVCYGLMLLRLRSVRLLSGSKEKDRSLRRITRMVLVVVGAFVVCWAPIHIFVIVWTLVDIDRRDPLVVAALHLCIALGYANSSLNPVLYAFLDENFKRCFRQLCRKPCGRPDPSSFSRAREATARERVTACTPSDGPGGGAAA
UniProt P41145, sequence (whole entry, looked up): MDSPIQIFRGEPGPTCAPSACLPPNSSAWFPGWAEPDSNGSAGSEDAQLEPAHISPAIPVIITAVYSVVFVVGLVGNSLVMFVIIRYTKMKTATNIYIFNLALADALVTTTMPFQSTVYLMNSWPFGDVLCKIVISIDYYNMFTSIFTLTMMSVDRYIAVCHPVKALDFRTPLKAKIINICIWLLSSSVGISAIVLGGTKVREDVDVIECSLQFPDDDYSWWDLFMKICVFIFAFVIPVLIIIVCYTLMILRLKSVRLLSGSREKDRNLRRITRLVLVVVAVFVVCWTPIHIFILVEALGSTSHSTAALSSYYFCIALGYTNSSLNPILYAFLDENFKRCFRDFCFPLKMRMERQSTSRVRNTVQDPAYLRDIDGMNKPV
UniProt P21918, sequence (whole entry, looked up): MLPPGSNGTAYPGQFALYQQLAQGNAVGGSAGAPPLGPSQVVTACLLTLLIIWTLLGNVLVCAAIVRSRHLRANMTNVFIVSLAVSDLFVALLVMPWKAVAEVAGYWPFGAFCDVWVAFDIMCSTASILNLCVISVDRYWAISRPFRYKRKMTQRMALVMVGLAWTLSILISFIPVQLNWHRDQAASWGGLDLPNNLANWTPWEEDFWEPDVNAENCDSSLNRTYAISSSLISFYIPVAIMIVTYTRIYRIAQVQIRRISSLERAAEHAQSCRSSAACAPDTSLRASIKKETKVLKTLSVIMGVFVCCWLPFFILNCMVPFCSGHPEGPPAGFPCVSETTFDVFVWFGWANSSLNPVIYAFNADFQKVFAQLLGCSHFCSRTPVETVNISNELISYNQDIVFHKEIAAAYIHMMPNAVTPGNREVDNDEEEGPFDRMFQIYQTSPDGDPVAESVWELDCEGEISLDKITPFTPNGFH
UniProt P20309, sequence (whole entry, looked up): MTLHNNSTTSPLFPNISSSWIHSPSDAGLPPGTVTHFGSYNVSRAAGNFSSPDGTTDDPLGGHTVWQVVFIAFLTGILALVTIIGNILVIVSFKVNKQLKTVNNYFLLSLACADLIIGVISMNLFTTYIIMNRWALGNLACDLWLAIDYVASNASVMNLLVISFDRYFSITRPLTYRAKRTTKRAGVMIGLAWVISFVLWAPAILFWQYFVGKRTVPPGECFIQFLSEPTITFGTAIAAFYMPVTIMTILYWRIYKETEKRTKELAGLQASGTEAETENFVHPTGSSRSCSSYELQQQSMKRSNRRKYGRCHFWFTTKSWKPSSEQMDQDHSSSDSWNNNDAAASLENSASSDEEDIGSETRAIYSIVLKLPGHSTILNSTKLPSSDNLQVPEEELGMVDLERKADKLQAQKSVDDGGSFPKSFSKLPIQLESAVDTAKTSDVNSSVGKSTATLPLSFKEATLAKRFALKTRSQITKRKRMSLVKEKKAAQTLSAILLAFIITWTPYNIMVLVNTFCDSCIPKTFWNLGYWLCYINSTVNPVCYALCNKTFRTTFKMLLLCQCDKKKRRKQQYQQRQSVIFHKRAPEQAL

Sample 1 — cell line: mouse MPNST tumor cells; method: high-content nuclear imaging; item: cell number; tested at: 10 µM; time: 12 h; notes: mean of 2 replicates; reference: plate mean; direction: higher = more cells; endpoint: nuclei count
Clc1ccc(C(OCCN2CCCCC2)c2ccccc2)cc1 (centres unmarked): -1.77 z-score
Oc1ccc2c3c1O[C@H]1c4oc5ccccc5c4C[C@@]4(O)[C@@H](C2)N(CC2CC2)CC[C@]314: 0.676 z-score
Cc1cc(Cl)ccc1OCCNC(=O)c1cccs1: 3.11 z-score
Oc1ccc2c3c1O[C@H]1[C@@H](O)CC[C@@]4(O)[C@@H](C2)N(CC2CCC2)CC[C@]314: 2.42 z-score
c1ccc([C@@H]2C[C@H]2NC2CCNCC2)cc1: 0.832 z-score and 1.77 z-score
C#C[C@]1(O)CC[C@H]2[C@@H]3CCC4=CC(=O)CCC4=C3C=C[C@@]21CC: 3.67 z-score
CC[C@@H](CO)NC(=O)[C@@H]1C=C2c3cccc4[nH]cc(c34)C[C@H]2N(C)C1: 0.961 z-score
O=C(N[C@H]1CN2CCC1CC2)c1ccc(Cl)cc1: 2.01 z-score

Sample 2 — cell line: HEK-293T/ACE2; tested at: concentration not given; time: 16 (unit not given); reference: vehicle; endpoint: viability
CC(=O)S[C@@H]1CC2=CC(=O)CC[C@]2(C)[C@H]2CC[C@@]3(C)[C@@H](CC[C@@]34CCC(=O)O4)[C@H]12: 102%
Cc1cccc(C)c1OCC(=O)N[C@@H](Cc1ccccc1)[C@@H](O)C[C@H](Cc1ccccc1)NC(=O)[C@H](C(C)C)N1CCCNC1=O: 103%
CCC(=O)O[C@H]1CC[C@H]2[C@@H]3CCC4=CC(=O)CC[C@]4(C)[C@H]3CC[C@]12C: 101%
CC(O)(P(=O)(O)O)P(=O)(O)O: 99.3%
CC(C)(C#N)c1cc(Cn2cncn2)cc(C(C)(C)C#N)c1: 99.5%
CN1CCN2c3ncccc3Cc3ccccc3C2C1 (centres unmarked): 102%
CCCCC(CC)COC(=O)C(C#N)=C(c1ccccc1)c1ccccc1 (centres unmarked): 93.7%
c1ccc(CN(CC2=NCCN2)c2ccccc2)cc1: 96.8%
COc1cc(Nc2c(C#N)cnc3cc(OCCCN4CCN(C)CC4)c(OC)cc23)c(Cl)cc1Cl: 83.5%
O=C(OCc1ccccc1)c1ccccc1: 97.8%
C#C[C@]1(O)CC[C@H]2[C@@H]3CCC4=C(CCC(=O)C4)[C@H]3CC[C@@]21C: 103%
CCCc1nn(C)c2c(=O)[nH]c(-c3cc(S(=O)(=O)N4CCN(C)CC4)ccc3OCC)nc12: 99.4%

Sample 3 — observed: enzyme activity; action: inhibitor; method: radiometric; tested at: 0.5 µM; endpoint: remaining activity
Target: Serine/threonine-protein kinase 33 (STK33, Homo sapiens, UniProt Q9BYT3)
UniProt Q9BYT3, sequence (whole entry, looked up): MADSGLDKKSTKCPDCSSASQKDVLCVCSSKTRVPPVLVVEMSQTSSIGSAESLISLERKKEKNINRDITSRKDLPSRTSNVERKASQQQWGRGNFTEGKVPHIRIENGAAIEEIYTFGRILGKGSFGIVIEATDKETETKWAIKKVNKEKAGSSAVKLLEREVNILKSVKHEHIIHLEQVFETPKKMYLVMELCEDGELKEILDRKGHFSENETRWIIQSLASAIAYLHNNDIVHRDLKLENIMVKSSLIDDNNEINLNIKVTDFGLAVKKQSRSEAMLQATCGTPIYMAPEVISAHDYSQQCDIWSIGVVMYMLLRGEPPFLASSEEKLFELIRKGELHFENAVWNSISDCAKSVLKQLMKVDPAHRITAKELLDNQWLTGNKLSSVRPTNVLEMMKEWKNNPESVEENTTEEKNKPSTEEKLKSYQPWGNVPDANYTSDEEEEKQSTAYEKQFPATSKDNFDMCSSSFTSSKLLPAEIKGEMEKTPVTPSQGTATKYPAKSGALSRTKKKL
N#CC(C#N)=C(N)/C(C#N)=C/c1ccc(O)cc1: 93.2%
Nc1[nH]nc2nc3ccccc3nc12: 98.7%
O=C(Nc1cccc(Nc2cc(Nc3cccc(C(F)(F)F)c3)ncn2)c1)C1CC1: 105%
Nc1ncnc2n[nH]c(Nc3ccc(F)cc3)c12: 94.3%
Cc1ccc(NC(=O)c2ccc(CN3CCN(C)CC3)cc2)cc1Nc1nc(-c2cccnc2)cs1: 91.1%
Oc1ccc(-c2nc(-c3ccncc3)c(-c3ccc(F)cc3)[nH]2)cc1: 103%
COc1ccc(OC)c2c(=S)c3ccccc3[nH]c12: 98.4%
O=C1NC(=O)C(c2cn(CCCO)c3ncccc23)=C1c1cnccn1: 82.8%
COC(=O)[C@]1(O)C[C@@H]2O[C@@]1(C)n1c3ccccc3c3c4c(c5c6ccccc6n2c5c31)C(=O)NC4: 12.5%
N#CCCc1ccc2c(c1)-c1[nH]c3ccc([N+](=O)[O-])cc3c1CC(=O)N2: 78.8%
COc1ccc(CNC(=O)Nc2ncc([N+](=O)[O-])s2)cc1: 100%
Cc1cccc(-c2[nH]c(C(C)(C)C)nc2-c2ccc3c(c2)OCO3)n1: 89%
O=C1Nc2ccc3ncsc3c2/C1=C/c1cnc[nH]1: 35.7%
COc1cc2ncnc(Nc3ccc(Oc4ccccc4)cc3)c2cc1OC: 96.3%
Cn1sc(=O)n(Cc2ccccc2)c1=O: 101%
Cc1nc(-c2ccccc2)c(-c2ccncc2)o1: 99.3%
O=C1NC(=O)c2cc(Nc3ccc(F)cc3)c(Nc3ccc(F)cc3)cc21: 99.3%
O=S(=O)(c1cccc2cnccc12)N1CCCNCC1: 90.3%
NCCNc1ncc(C(N)=O)c(Nc2cccc(C(F)(F)F)c2)n1: 81.9%
O=C1NC(=O)C(c2cn(CCCn3ccnc3)c3ccccc23)=C1Nc1ccccc1: 82.9%
COc1cc2nccc(Oc3ccc(NC(=S)NC(=O)c4ccccc4C)cc3)c2cc1OC: 94.6%

Sample 4 — observed: cell-free assay; tested at: 10 µM; endpoint: inhibition
Compound: C[C@@H](NC(=O)Nc1cc2[nH]ncc2c(CO)n1)c1ccccc1
OPRM1 (Homo sapiens, UniProt P35372): 6.82%
DRD5 (Homo sapiens, UniProt P21918): 21.1%
CHRM3 (Homo sapiens, UniProt P20309): -5.17%
OPRK1 (Homo sapiens, UniProt P41145): 10.3%
OPRD1 (Homo sapiens, UniProt P41143): -18.7%
CHRM1 (Homo sapiens, UniProt P11229): -1.16%
